Measured values gathered from unrelated publications.
Lines come from different studies, so protocols differ. ± marks the error that the study gave.

SMILES | target or system | assay | system | setting | how to read | endpoint | result
N=C(N)NCCC[C@@H]1NC(=O)[C@H](CO)NC(=O)[C@@H](NC(=O)[C@H](CO)NC(=O)[C@H](CO)NC(=O)[C@H](Cc2c[nH]c3ccccc23)NC(=O)CNC(=O)[C@H](CO)NC(=O)[C@@H](N)Cc2c[nH]c3ccccc23)CSSC[C@@H](C(=O)NCC(=O)O)NC(=O)[C@H](CO)NC1=O |  |  | patients, plasma | intravenous, 5 mg/kg, thrice weekly, geometric mean |  | AUC(0-inf) | 349 ng·h/mL
C/C(N)=N/C(=N\S(=O)(=O)c1ccc(C(F)(F)F)cc1)N1C[C@H](c2ccccc2)C(c2ccc(Cl)cc2)=N1 |  |  | male C57BL/6 mouse, liver | intravenous, 5 mg/kg |  | AUC(0-inf) | 17600 ng·h/mL
CCc1ccc2nc(N(CCN(C)C)C(=O)c3ccc4ncsc4c3)sc2c1 | Trypanosoma cruzi | reporter mRNA translation, inhibitor, measured: capped polyadenylated Renilla luciferase mRNA | cell-free extract | concentration not given | relative to: control RNA | relative translation | 105%
Cc1cc(NC(=O)[C@H](O)c2cc(F)cc(F)c2)ccc1-c1cnc(N)c(C(=O)NC(C)C)c1 |  |  | female nude mouse, plasma | oral, 50 mg/kg, single dose |  | AUC(0-inf) | 39400 ng·h/mL
CC(=O)N(Cc1cccnc1)c1cccc(-c2nc3ccccc3s2)c1 | Trypanosoma cruzi | reporter mRNA translation, inhibitor, measured: capped polyadenylated Renilla luciferase mRNA | cell-free extract | concentration not given | relative to: control RNA | relative translation | 102%
COc1cnc2cccc(N3CCc4c(cc(Cn5ccnc5)cc4-c4cn(C)nc4C(F)(F)F)C3=O)c2c1 |  |  | male CD-1 mouse, plasma | oral, 50 mg/kg |  | AUC(0-inf) | 50500 ng·h/mL
CC[C@H](C)[C@@H]1NC(=O)[C@H](Cc2ccc(O)cc2)NC(=O)CCCSC[C@@H](C(=O)N(CC(=O)N[C@@H](CC(C)C)C(=O)NCC(N)=O)Cc2ccc(F)cc2)NC(=O)[C@H](CC(N)=O)NC(=O)[C@H](CCC(N)=O)NC1=O |  |  | healthy women, plasma | intranasal, 200 µg single dose |  | AUC(0-inf) | 0.086 ng·h/mL
CN1CCN(C(=S)N/N=C/c2ccccc2O)CC1 |  |  | plasma | intravenous, 30 mg/kg |  | AUC(0-inf) | 2980 ± 365 ng·h/mL
C=C(NC(=O)c1csc(-c2nc3c(cc2O)-c2nc(cs2)C(=O)NC(C(C)O)C(=O)NC(=C(C)OC)c2nc(cs2)C(=O)NC2c4nc(cs4)C(=O)NC(COC(=O)c4c5c6c(cccc6n4O)COC(=O)C(OC4CC(C)(O)C(N(C)C)C(C)O4)C2OC5)c2nc-3cs2)n1)C(N)=O (stereo not shown) |  |  | ICR mice, Streptococcus pneumoniae ATCC 49169 infected, immunocompromised, blood | intravenous, 8 mg/kg/day once daily |  | AUC(0-inf) | 769 ng·h/mL
COCC1CN(C2CCN(c3cc(OC)c(Nc4ncc(Br)c(Nc5ccc6c(c5P(C)(C)=O)OCCO6)n4)cc3C)CC2)C1 |  |  | EGFR-mutant NSCLC patients, plasma | oral, 10 mg single dose, geometric mean |  | AUC(0-inf) | 545 ng·h/mL

Some of these lines once more:
SMILES | target or system | assay | system | setting | how to read | endpoint | result
CN1CCN(C(=S)N/N=C/c2ccccc2O)CC1 |  |  | plasma | intravenous, 30 mg/kg |  | AUC(0-inf) | 2980 ± 365 ng·h/mL
